Published values pooled from the literature.
Compare with care: the assays were run in different laboratories. ± marks the error that the study gave.
Cytochrome P450 2A13: Cytochrome P450 2A13 (Homo sapiens, UniProt Q16696)
ACE2: Angiotensin-converting enzyme 2 (ACE2, Homo sapiens, UniProt Q9BYF1)
KEAP1 Kelch domain: Kelch-like ECH-associated protein 1, Kelch domain (KEAP1, Homo sapiens, UniProt Q14145)

Substance | tested on | assay | test system | setting | measurement | value
C#Cc1cc2ccccc2c2ccccc12 | Cytochrome P450 2A13 | binding, absorbance | – | pH 7.4 | Kd | 0.95 µM
CC(=O)N(O)CCC[C@@H]1NC(=O)CNC(=O)CNC(=O)CNC(=O)[C@H](CCCN(O)C(C)=O)NC(=O)[C@H](CCCN(O)C(C)=O)NC1=O.[Fe+3] | Ferrichrome-binding lipoprotein FhuD (Listeria monocytogenes, UniProt Q8Y5U6) | binding, tryptophan fluorescence quenching | – | His tag removed | Kd | 0.243 ± 0.013 µM
CC[N+](CC)(CC)CC(=O)Nc1c(C)cccc1C | potassium channel | steady-state block | Doryteuthis pealeii | internal application, with: membrane potential +100 mV | Kd | 961 µM
C=C(C)[C@@H]1CCC(C)=C[C@H]1c1c(O)cc(CCCCC)cc1O | FABP1 (Homo sapiens, UniProt P07148) | binding, DAUDA displacement | – | with: DAUDA 0.5 µM | Kd | 0.57 ± 0.006 µM
Nc1ncnc2c1ncn2[C@@H]1O[C@H](COP(=O)(O)OP(=O)(O)NP(=O)(O)O)[C@@H](O)[C@H]1O | matB (Rhodopseudomonas palustris, UniProt Q6ND88, C106A/K488A/Q457C/R286C) | binding, fluorescence titration | – | pH 7.0, 20 °C | Kd | 253 ± 11 µM
CN[C@H]1C(=O)N[C@@H]2Cc3ccc(cc3)Oc3cc4cc(c3O[C@@H]3O[C@H](C(=O)O)[C@@H](O)[C@H](O)[C@H]3NC(=O)CCCCCCCCC(C)C)Oc3ccc(cc3Cl)[C@@H](O)[C@@H]3NC(=O)[C@H](NC(=O)[C@@H]4NC(=O)[C@@H](NC2=O)c2cc(cc(O)c2Cl)Oc2cc1ccc2O)c1ccc(O)c(c1)-c1c(O[C@H]2O[C@H](CO)[C@@H](O)[C@H](O)[C@@H]2O)cc(O)cc1[C@@H](C(=O)NCCCN(C)C)NC3=O | Endolysin (Enterobacteria phage T4, UniProt P00720, C54T/C97A/L164A) | SPR | – | 25 °C, immobilised T4 lysozyme fusion | Kd | 0.043 ± 0.002 µM
CSCC[C@H](NC(=O)[C@H](CC(C)C)NC(=O)[C@H](Cc1ccccc1)NC(=O)[C@H](CC(=O)O)NC(=O)[C@H](Cc1ccc(O)cc1)NC(=O)[C@H](Cc1c[nH]c2ccccc12)NC(=O)[C@@H](NC(=O)[C@@H](NC(=O)[C@H](CCCNC(=N)N)NC(=O)[C@@H](N)CO)C(C)C)[C@@H](C)O)C(=O)N[C@@H](CCC(=O)O)C(=O)N[C@@H](CC(=O)O)C(=O)N[C@H](C(=O)N[C@@H](CCCCN)C(=O)N[C@@H](CO)C(=O)N[C@@H](CCCNC(=N)N)C(=O)O)[C@@H](C)O | Guanine nucleotide-binding protein G(i) subunit alpha-1, GDP-bound (GNAI1, Homo sapiens, UniProt P63096) | binding, microscale thermophoresis | – | – | Kd | 0.345 ± 0.04 µM
CC(=O)N[C@H]1C(O)O[C@H](CO)[C@@H](O[C@@H]2O[C@H](CO)[C@H](O)[C@H](O)[C@H]2O)[C@@H]1O (some centres unmarked) | Lectin (Erythrina crista-galli, UniProt P83410) | BLI competition | – | solution Kd, with: LacNAc-biotin biosensor | Kd | 80 µM
O=C(CCNS(=O)(=O)c1cccc2nsnc12)N1CCN(c2ccncc2)CC1 | CHRM1 (Homo sapiens, UniProt P11229) | phosphoinositide hydrolysis, antagonist, Schild analysis | – | with: acetylcholine | Kd | 0.016 µM
C=CC1=C(C)c2cc3[nH]c(cc4nc(cc5[nH]c(cc1n2)c(C)c5C=C)C(C)=C4CCC(=O)O)c(CCC(=O)O)c3C.[Fe+3] | Heme-binding lipoprotein HupD (Listeria monocytogenes, UniProt Q8Y4K7) | binding, Trp fluorescence quenching | – | His-tagged protein | Kd | 0.036 ± 0.011 µM
C=CC1=C(C)c2cc3[nH]c(cc4nc(cc5[nH]c(cc1n2)c(C)c5C=C)C(C)=C4CCC(=O)O)c(CCC(=O)O)c3C.[Fe+3] | Kelch protein K13 (Plasmodium falciparum, UniProt Q8IDQ2, R539T) | – | – | – | Kd | 0.131 ± 0.015 µM
CC/C=C/C=C\C=C/C=C/CCCCCCCC(=O)SCCNC(=O)CCNC(=O)[C@H](O)C(C)(C)COP(=O)(O)OP(=O)(O)OC[C@H]1O[C@@H](n2cnc3c(N)ncnc32)[C@H](O)[C@@H]1OP(=O)(O)O (relative stereo) | Fatty acid-binding protein, liver (Rattus norvegicus, UniProt P02692) | binding, fluorescence binding | – | – | Kd | 0.228 ± 0.018 µM
COc1cc2c(cc1OC)C13CCN4CC5=CCOC(CC(=O)O)C(C5CC41)C3N2 (centres unmarked) | acetylcholine binding protein (Bulinus truncatus) | binding, scintillation proximity | – | with: 5 nM [3H]epibatidine | Kd | 0.415 µM
C#CC[C@H](NC(=O)CNC(=O)[C@H](CO)NC(=O)[C@H](C)NC(=O)[C@H](Cc1ccc(O)cc1)NC(=O)[C@H](Cc1c[nH]cn1)NC(=O)[C@H](CC(C)C)NC(=O)[C@@H](NC(=O)[C@H](Cc1c[nH]c2ccccc12)NC(=O)[C@H](Cc1ccccc1)NC(=O)[C@H](CCCCN)NC(=O)[C@H](CC(N)=O)NC(=O)[C@H](CC(C)C)NC(=O)[C@@H](NC(=O)[C@H](Cc1c[nH]cn1)NC(=O)[C@H](CC(=O)O)NC(=O)[C@H](CC(C)C)NC(=O)[C@H](Cc1ccccc1)NC(=O)[C@@H](NC(=O)[C@@H]1CCCN1C(=O)[C@@H](N)CCSC)[C@@H](C)CC)[C@@H](C)CC)[C@@H](C)CC)C(N)=O (stereo in doubt) | Programmed cell death 1 ligand 1, extracellular domain, unglycosylated (CD274, Homo sapiens, UniProt Q9NZQ7) | binding | – | – | Kd | 0.06 to 0.12 µM
CCCCCCCC[N+](C)(C)CCO | potassium channel | steady-state block | Doryteuthis pealeii | internal application, with: membrane potential +100 mV | Kd | > 2000 µM
CCCn1c(=O)c2[nH]c(-c3ccc(OCC(=O)Nc4ccc(C(C)=O)cc4)cc3)nc2n(CCC)c1=O | ADORA2A (Homo sapiens, UniProt P29274, A54L/K122A/T88A/V239A) | binding, antagonist, surface plasmon resonance | – | 25 °C, 1% DMSO | Kd | 0.103 µM

Substance | tested on | assay | test system | setting | measurement | value
CC1=C(/C=C/C(C)=C/C=C/C(C)=C/C=C/C=C(C)/C=C/C=C(C)/C=C/C2=C(C)C(=O)[C@@H](O)CC2(C)C)C(C)(C)C[C@H](O)C1=O | Albumin (ALB, Homo sapiens, UniProt P02768) | binding, SPR | – | – | Kd | 1.47 µM
C#Cc1ccc2c(ccc3ccccc32)c1 | Cytochrome P450 2A13 | binding, absorbance | – | pH 7.4 | Kd | 1.1 µM
CN[C@@](C)(C[18F])C(=O)O | – | – | mouse, bone | 2 h, tumour-bearing | tracer uptake | 2.3 %ID/g
CC[C@H](C)[C@H](NC(=O)[C@@H]1CCCN1C(=O)[C@@H](NC(=O)[C@H](CC(=O)O)NC(=O)[C@@H](NC(=O)[C@@H](N)CC(=O)O)[C@@H](C)O)[C@@H](C)O)C(=O)N[C@H](C(=O)N[C@@H](Cc1ccc(O)cc1)C(=O)N[C@@H](CC(N)=O)C(=O)N[C@@H](CC(=O)O)C(=O)N[C@@H](CCCNC(=N)N)C(=O)N[C@@H](CC(=O)O)C(=O)N1CCC[C@H]1C(=O)N[C@@H](CC(C)C)C(=O)N[C@@H](CC(=O)O)C(=O)O)C(C)C | HSPA1A (Homo sapiens, UniProt P0DMV8) | binding, SPR | – | pH 7.4 | Kd | 329 µM
cGMP | Potassium/sodium hyperpolarization-activated cyclic nucleotide-gated channel 2, C-terminal region (Hcn2, Mus musculus, UniProt O88703) | binding | – | – | Kd | 0.36 µM
c1c[nH]cn1 | Nitric oxide synthase 1, heme domain (Nos1, Rattus norvegicus, UniProt P29476) | heme binding, difference spectroscopy | – | pH 7.5 | Kd | 120 ± 20 µM
c1ccc(-c2ccccc2)cc1 | Cytochrome P450 2A13 | binding, absorbance | – | pH 7.4 | Kd | 0.88 µM
CC[N+](CC)(CC)CC(=O)Nc1c(C)cccc1C | sodium channel (rat brain), batrachotoxin-modified | open channel block, blocker, planar lipid bilayer, single channel | – | low affinity open state, +60 mV | Kd | 7500 µM
Nc1ncnc2c1ncn2[C@@H]1O[C@H](COP(=O)(O)O)[C@@H](OP(=O)(O)O)[C@H]1O | Sult1a1 (Rattus norvegicus, UniProt P17988) | binding, TNP-AMP displacement | – | enzyme pretreated with GSSG | Kd | 5.1 ± 0.4 µM
CCCCCCCCCC[N+](CCO)(CCO)CCO | potassium channel | steady-state block | Doryteuthis pealeii | internal application, with: membrane potential +100 mV | Kd | 132 µM
CCCCCCCCCCCCCCCC(=O)N[C@@H](CCC(N)=O)C(=O)O | Bifunctional cytochrome P450/NADPH--P450 reductase, heme domain (cyp102A1, Bacillus megaterium, UniProt P14779) | substrate binding, substrate, UV-vis spectral titration | – | pH 7.4, room temperature, wild-type heme domain | Kd | 0.2 ± 0.014 µM
COc1cc(O)c2c(c1)C(=O)c1cc(C)cc(O)c1C2=O | ACE2 | binding, SPR | – | – | Kd | 0.379 µM
CC(=O)N[C@@H](CO)C(=O)N[C@@H](CC(C)C)C(=O)N[C@@H](CCC(=O)O)C(=O)N[C@@H](CCC(=O)O)C(=O)N1CCC[C@H]1C(=O)N[C@@H](Cc1c[nH]cn1)C(=O)N[C@@H](CO)C(=O)N1CCC[C@H]1C(=O)N[C@@H](CCC(=O)O)C(=O)N[C@H](C(=O)NCC(=O)N[C@@H](CCC(=O)O)C(=O)N[C@@H](CCCCN)C(=O)N[C@H](C(=O)N[C@H](C(=O)N[C@@H](C)C(=O)NCC(=O)N[C@@H](CCC(=O)O)C(=O)N[C@H](C(=O)N[C@@H](CC(N)=O)C(N)=O)C(C)C)C(C)C)C(C)C)[C@@H](C)O | KEAP1 Kelch domain | isothermal titration calorimetry | Kelch domain | pH 7, 25 °C | Kd | 0.25 ± 0.02 µM
CC(C)C[C@H](N[C@@H](Cc1cncn1Cc1cc(Cl)cc(Cl)c1)C(=O)O)C(=O)O | ACE2 | binding, SPR | – | – | Kd | 0.029 µM
CSCC[C@H](NC(=O)[C@H](CCC(N)=O)NC(=O)[C@H](CC(C)C)NC(=O)[C@H](CO)NC(=O)[C@H](CCC(N)=O)NC(=O)[C@H](CC(C)C)NC(=O)[C@H](CCC(=O)O)NC(=O)CNC(=O)[C@@H](NC(=O)[C@H](CO)NC(=O)[C@@H]1CCCN1C(=O)[C@H](CC(=O)O)NC(=O)[C@@H](NC(=O)[C@H](CCC(=O)O)NC(=O)[C@H](CCCCN)NC(=O)[C@H](CO)NC(=O)[C@H](CO)NC(=O)[C@H](CC(C)C)NC(C)=O)C(C)C)[C@@H](C)O)C(=O)N1CCC[C@H]1C(=O)N[C@@H](CCC(=O)O)C(N)=O | KEAP1 Kelch domain | isothermal titration calorimetry | Kelch domain | pH 7, 25 °C | Kd | 1.3 ± 0.02 µM
CCSCCNC(=O)CCNC(=O)[C@H](O)C(C)(C)COP(=O)(O)OP(=O)(O)OC[C@H]1O[C@@H](n2cnc3c(N)ncnc32)[C@H](O)[C@@H]1OP(=O)(O)O | Chloramphenicol acetyltransferase (cat, Escherichia coli, UniProt P62577) | ligand, native ESI-MS | – | third ligand binding, gas phase, with: 200 mM ammonium acetate | Kd | 21 ± 8 µM

A few entries again:
Substance | tested on | assay | test system | setting | measurement | value
COc1cc2c(cc1OC)C13CCN4CC5=CCOC(CC(=O)O)C(C5CC41)C3N2 (centres unmarked) | acetylcholine binding protein (Bulinus truncatus) | binding, scintillation proximity | – | with: 5 nM [3H]epibatidine | Kd | 0.415 µM
CC(=O)N(O)CCC[C@@H]1NC(=O)CNC(=O)CNC(=O)CNC(=O)[C@H](CCCN(O)C(C)=O)NC(=O)[C@H](CCCN(O)C(C)=O)NC1=O.[Fe+3] | Ferrichrome-binding lipoprotein FhuD (Listeria monocytogenes, UniProt Q8Y5U6) | binding, tryptophan fluorescence quenching | – | His tag removed | Kd | 0.243 ± 0.013 µM
